{"data": "Experimental data gathered from unrelated publications", "lasR": "Transcriptional activator protein LasR (lasR, Pseudomonas aeruginosa, UniProt P25084)", "MAOA": "Amine oxidase [flavin-containing] A (MAOA, Homo sapiens, UniProt P21397)", "APP": "Amyloid-beta precursor protein (APP, Homo sapiens, UniProt P05067)", "note": "Each line is one published result; not all experiments were run side by side. Numbers after ± are the reported error.", "sequence of UniProt P25084 (whole entry, looked up)": "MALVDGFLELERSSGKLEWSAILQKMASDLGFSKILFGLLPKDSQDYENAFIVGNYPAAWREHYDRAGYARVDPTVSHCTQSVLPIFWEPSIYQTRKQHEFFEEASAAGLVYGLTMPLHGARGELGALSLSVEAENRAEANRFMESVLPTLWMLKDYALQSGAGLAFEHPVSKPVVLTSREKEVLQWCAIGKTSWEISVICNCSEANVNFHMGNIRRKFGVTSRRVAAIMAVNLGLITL", "sequence of UniProt P05067 (whole entry, looked up)": "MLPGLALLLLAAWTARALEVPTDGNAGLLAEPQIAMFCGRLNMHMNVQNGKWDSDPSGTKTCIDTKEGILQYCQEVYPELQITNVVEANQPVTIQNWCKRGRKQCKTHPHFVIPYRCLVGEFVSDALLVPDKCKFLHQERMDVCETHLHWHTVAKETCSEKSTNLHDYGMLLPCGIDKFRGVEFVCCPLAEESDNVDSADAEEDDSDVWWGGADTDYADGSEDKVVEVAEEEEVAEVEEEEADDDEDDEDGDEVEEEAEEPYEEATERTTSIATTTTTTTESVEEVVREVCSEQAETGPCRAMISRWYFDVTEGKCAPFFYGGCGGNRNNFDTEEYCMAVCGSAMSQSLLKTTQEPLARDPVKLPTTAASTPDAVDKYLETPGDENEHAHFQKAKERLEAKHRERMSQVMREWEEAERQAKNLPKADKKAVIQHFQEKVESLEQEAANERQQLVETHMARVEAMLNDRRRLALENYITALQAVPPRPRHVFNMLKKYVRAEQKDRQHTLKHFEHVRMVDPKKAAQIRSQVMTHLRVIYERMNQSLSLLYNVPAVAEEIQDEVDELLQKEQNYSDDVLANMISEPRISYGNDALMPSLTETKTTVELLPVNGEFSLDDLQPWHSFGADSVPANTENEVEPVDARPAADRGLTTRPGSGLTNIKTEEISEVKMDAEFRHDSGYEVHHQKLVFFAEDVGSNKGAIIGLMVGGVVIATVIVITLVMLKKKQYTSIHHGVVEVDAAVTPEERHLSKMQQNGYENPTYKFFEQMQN", "sequence of UniProt P21397 (whole entry, looked up)": "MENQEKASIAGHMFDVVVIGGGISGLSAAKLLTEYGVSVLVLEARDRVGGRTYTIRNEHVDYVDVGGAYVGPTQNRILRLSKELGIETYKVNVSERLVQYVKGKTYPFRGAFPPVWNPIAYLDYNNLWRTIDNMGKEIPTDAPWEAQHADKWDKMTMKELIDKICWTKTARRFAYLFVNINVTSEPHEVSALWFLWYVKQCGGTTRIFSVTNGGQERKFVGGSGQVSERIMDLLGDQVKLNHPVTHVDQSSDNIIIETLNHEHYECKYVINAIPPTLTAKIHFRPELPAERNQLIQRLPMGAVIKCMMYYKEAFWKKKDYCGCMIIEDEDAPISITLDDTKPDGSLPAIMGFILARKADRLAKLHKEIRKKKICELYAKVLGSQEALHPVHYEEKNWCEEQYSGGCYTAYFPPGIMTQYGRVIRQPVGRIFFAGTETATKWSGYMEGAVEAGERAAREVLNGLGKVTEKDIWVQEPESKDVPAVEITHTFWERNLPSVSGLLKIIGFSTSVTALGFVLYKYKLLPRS", "sequence of UniProt Q007T0 (whole entry, looked up)": "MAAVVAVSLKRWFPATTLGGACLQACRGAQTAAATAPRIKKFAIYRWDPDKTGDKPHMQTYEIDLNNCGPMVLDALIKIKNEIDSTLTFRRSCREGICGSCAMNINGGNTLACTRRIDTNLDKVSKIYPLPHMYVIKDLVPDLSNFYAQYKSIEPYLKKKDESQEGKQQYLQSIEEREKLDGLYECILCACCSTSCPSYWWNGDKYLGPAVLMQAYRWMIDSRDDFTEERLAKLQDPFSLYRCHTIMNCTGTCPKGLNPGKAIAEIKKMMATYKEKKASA", "sequence of UniProt P43403 (whole entry, looked up)": "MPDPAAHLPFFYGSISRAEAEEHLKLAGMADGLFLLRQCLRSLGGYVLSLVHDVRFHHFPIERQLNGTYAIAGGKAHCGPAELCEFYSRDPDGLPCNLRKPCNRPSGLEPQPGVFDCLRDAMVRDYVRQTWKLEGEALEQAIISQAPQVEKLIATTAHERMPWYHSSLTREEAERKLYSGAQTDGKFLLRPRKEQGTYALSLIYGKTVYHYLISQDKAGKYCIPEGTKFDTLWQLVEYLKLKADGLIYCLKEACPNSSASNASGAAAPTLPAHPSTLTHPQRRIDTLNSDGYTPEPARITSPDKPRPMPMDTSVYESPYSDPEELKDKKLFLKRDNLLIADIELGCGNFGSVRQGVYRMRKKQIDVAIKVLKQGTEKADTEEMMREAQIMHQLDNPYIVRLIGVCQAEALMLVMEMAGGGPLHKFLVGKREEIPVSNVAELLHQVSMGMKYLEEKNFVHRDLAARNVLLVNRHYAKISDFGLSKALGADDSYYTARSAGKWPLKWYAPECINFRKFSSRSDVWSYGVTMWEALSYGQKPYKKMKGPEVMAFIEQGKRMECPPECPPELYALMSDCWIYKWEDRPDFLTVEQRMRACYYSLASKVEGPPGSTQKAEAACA", "sequence of UniProt O33336 (whole entry, looked up)": "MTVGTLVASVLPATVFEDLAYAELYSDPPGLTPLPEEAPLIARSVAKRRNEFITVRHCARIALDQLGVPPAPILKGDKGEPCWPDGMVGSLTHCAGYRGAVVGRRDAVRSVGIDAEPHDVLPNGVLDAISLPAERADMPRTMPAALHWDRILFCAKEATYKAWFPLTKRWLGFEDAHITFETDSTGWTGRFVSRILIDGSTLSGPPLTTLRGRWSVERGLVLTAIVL", "sequence of UniProt Q15858 (whole entry, looked up)": "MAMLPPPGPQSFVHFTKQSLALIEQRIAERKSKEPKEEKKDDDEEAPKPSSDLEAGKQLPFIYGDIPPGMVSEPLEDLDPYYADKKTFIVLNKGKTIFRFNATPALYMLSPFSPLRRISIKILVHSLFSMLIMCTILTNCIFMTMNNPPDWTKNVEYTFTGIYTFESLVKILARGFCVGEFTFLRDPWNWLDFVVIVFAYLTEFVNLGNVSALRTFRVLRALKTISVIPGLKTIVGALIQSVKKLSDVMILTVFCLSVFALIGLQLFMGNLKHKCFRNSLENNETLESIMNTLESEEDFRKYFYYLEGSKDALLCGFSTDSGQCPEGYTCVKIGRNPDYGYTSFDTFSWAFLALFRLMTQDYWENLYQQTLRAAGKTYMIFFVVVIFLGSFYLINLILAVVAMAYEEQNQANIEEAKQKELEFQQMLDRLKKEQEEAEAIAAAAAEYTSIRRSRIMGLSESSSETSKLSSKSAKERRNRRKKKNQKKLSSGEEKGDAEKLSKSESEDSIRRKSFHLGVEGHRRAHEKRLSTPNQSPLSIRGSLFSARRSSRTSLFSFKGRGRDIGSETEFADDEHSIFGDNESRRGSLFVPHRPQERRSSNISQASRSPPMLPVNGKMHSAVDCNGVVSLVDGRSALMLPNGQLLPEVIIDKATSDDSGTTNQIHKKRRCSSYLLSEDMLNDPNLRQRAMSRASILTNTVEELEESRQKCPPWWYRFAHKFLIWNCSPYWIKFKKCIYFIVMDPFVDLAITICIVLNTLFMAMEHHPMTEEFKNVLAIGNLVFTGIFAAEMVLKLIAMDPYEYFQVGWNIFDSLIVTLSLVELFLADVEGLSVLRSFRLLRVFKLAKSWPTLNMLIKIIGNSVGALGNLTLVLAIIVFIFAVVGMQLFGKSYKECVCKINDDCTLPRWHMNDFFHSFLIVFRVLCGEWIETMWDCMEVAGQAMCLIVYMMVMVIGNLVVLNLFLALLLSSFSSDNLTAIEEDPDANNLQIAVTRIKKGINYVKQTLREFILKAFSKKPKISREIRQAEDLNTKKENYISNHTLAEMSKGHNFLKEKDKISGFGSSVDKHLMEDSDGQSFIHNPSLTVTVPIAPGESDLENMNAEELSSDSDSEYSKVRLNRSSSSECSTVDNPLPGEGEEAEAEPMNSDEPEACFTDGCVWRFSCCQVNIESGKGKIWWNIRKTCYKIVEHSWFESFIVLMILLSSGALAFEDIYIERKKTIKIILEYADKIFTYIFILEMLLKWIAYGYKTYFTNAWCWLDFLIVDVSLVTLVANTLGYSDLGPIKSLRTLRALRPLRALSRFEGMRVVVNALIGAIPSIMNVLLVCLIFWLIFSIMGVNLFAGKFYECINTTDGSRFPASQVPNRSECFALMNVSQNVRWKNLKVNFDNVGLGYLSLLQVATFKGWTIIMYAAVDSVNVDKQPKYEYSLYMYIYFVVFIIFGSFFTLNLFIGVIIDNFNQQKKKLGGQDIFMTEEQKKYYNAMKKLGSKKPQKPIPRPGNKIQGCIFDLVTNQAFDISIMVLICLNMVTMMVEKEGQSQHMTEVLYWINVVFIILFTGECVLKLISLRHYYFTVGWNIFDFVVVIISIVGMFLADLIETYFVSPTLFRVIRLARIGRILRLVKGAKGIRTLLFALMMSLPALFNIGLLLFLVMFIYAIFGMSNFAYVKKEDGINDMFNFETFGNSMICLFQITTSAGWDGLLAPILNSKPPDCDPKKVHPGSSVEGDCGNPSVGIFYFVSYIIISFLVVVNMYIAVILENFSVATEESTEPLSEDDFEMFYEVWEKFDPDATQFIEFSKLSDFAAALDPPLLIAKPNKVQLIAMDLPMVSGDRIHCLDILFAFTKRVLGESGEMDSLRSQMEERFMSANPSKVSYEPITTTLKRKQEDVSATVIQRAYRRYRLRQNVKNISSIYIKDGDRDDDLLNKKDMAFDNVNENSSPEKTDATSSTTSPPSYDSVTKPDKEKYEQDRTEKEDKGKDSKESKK", "sequence of UniProt D0VWV4 (whole entry, looked up)": "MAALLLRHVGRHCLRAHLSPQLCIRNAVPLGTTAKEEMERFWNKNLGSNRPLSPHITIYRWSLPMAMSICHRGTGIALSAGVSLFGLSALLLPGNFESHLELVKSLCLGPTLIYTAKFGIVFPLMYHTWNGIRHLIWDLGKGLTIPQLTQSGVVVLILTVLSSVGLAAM", "sequence of UniProt A5GZW8 (whole entry, looked up)": "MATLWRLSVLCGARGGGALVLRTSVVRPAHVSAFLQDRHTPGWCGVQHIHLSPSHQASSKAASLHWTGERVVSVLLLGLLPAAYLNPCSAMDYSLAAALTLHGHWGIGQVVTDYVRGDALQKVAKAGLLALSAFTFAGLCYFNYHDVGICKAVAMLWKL"}
{"Compound": "CCCCCCc1cn(-c2ccc(C(=O)N[C@H]3CCOC3=O)cc2)nn1", "tested on": "lasR", "assay": "reporter gene, antagonist", "setting": "10 µM, with: OdDHL 10 nM", "quantity": "inhibition", "value": "50%"}
{"Compound": "CCS(=O)(=O)N1CCN(CC(=O)Nc2ccc(/C=C/C(=O)c3ccc(OC)c(OC)c3)cc2)CC1", "tested on": "MAOA", "assay": "enzyme activity, inhibitor, fluorescence", "setting": "100 µM", "quantity": "inhibition", "value": "24.1%"}
{"Compound": "NC1CC1c1ccc(NC(=O)C(CCc2ccccc2)NC(=O)OCc2ccccc2)cc1 (stereo not shown)", "tested on": "MAOA", "assay": "enzyme activity, inhibitor, HRP-coupled", "setting": "100 µM, with: kynuramine", "quantity": "inhibition", "value": "87%"}
{"Compound": "C[C@@H](O)[C@H](NC(=O)[C@H](CCCCN)NC(=O)[C@H](Cc1c[nH]c2ccccc12)NC(=O)CN)C(=O)N[C@@H](CCCNC(=N)N)C(=O)NC(C)(C)C(=O)N[C@@H](CCCNC(=N)N)C(=O)NC(C)(C)C(=O)N[C@H](C(=O)N[C@@H](CO)C(=O)N[C@@H](Cc1c[nH]cn1)C(=O)N[C@@H](Cc1ccc(O)cc1)C(=O)NCC(=O)O)[C@@H](C)O", "tested on": "Integrin alpha-2, with integrin beta-1 (Homo sapiens, UniProt P17301)", "test system": "K562 expressing integrin α2", "setting": "up to 1×1 µM", "scale": "maximal", "quantity": "inhibition", "value": "40%"}
{"Compound": "O=[N+]([O-])c1ccc(/N=N/c2ccc3nc(-c4ccccc4)cc(-c4ccccc4)c3c2)cc1", "tested on": "APP", "assay": "amyloid aggregation, inhibitor, fluorescence", "setting": "25 µM", "quantity": "inhibition", "value": "66%"}
{"Compound": "O=C(N[C@H]1CCOC1=O)c1cccc(-c2cn(-c3ccc4[nH]ccc4c3)nn2)c1", "tested on": "lasR", "assay": "reporter gene, antagonist", "setting": "100 µM, with: OdDHL 10 nM", "quantity": "inhibition", "value": "7%"}
{"Compound": "CC(C)C[C@H](NC(=O)[C@H](Cc1ccccc1)NC(=O)CNC(=O)CNC(=O)[C@@H](N)Cc1ccc(O)cc1)C(=O)O", "assay": "K+ current, agonist, photo-uncaging", "test system": "rat locus coeruleus neurons", "setting": "concentration not given, large somatic currents", "quantity": "current amplitude", "value": "182 ± 8.5 pA"}
{"Compound": "CC(=O)NC(Cc1ccc(Br)c(Cl)c1)C(=O)N[C@@H](C)C(=O)N1CCC[C@H]1C(=O)N1CCC[C@H]1C(=O)N[C@@H](CCC(=O)O)C(=O)N[C@@H](Cc1c[nH]cn1)C(=O)N[C@@H](CO)C(=O)N[C@H](C(=O)N[C@@H](C)C(N)=O)[C@@H](C)OP(=O)(O)O (stereo partly shown)", "tested on": "ZAP70 (Homo sapiens, UniProt P43403)", "assay": "enzyme activity, inhibitor", "setting": "10 µM", "quantity": "inhibition", "value": "0.71%"}
{"Compound": "CCN(Cc1ccccc1)C(=O)CCc1nc(CN2CCN(C(=O)Cc3ccc(OC)c(OC)c3)CC2)no1", "tested on": "SCN9A (Homo sapiens, UniProt Q15858)", "assay": "whole-cell patch clamp", "test system": "HEK stable", "setting": "300 nM", "quantity": "V1/2 of activation", "value": "-40 ± 2.06 mV"}
{"Compound": "CCCCCn1cc(C(=O)c2cccc3ccccc23)c2ccccc21", "tested on": "CNR2 (Homo sapiens, UniProt P34972)", "assay": "Gαi1 engagement, agonist, BRET", "scale": "reference: CB1 minus CB2", "quantity": "Emax difference", "value": "~70%"}
{"Compound": "O=C(Cn1cc(C2CCCCC2)nn1)N[C@H]1CCOC1=O", "tested on": "lasR", "assay": "reporter gene, antagonist", "setting": "100 µM, with: OdDHL 10 nM", "quantity": "inhibition", "value": "72%"}
{"Compound": "Cc1nc(=O)c2cc(CN(C)c3ccc(C(=O)NCCCc4nn[nH]n4)s3)ccc2[nH]1", "tested on": "4'-phosphopantetheinyl transferase PptT (Mycobacterium tuberculosis, UniProt O33336)", "assay": "enzyme activity, inhibitor, fluorescence polarization", "quantity": "Hill slope", "value": 1.2}
{"Compound": "CN[C@](C)(C[18F])C(=O)O", "tested on": "MDA-MB-468 tumour model", "test system": "host not given, blood", "setting": "30 min, tumour-bearing", "quantity": "tracer uptake", "value": "2 %ID/g"}
{"Compound": "O=C(Nc1ccccc1Nc1ccccc1)c1cccnc1Cl", "tested on": "Succinate dehydrogenase complex (Sus scrofa, UniProt A5GZW8+D0VWV4+Q007T0+Q0QF01)", "assay": "enzyme activity, double-antibody sandwich ELISA", "setting": "2 µM", "quantity": "inhibition", "value": "50.1%"}
{"Compound": "Ic1ccccc1/N=N/c1ccc2nc(-c3ccccc3)cc(-c3ccccc3)c2c1", "tested on": "APP", "assay": "amyloid aggregation, inhibitor, fluorescence", "setting": "25 µM", "quantity": "inhibition", "value": "66%"}
{"Compound": "CSCC[C@H](NC(=O)[C@H](Cc1ccccc1)NC(=O)[C@H](CCSC)NC(=O)[C@@H](NC(=O)[C@@H]1CCCN1C(=O)[C@H](Cc1ccccc1)NC(=O)[C@H](CC(=O)O)NC(=O)CN)C(C)C)C(=O)O", "tested on": "OGT (Homo sapiens, UniProt O15294)", "assay": "enzyme activity, fluorescence activity", "setting": "concentration not given", "quantity": "inhibition", "value": "no inhibition"}
